Experimental data pooled from the literature.
Compare with care: the assays were run in different laboratories.
Organism: Escherichia coli

Compound	assay	system	setting	scale	MIC
CC[C@H](C)[C@H](N)C(=O)N[C@@H](CC(C)C)C(=O)NCC(=O)N[C@@H](CCC(=O)O)C(=O)N[C@H](C(=O)N[C@@H](Cc1c[nH]c2ccccc12)C(=O)N[C@@H](CCCCN)C(=O)NCC(=O)N[C@H](C(=O)N[C@@H](CCCCN)C(=O)N[C@@H](CC(=O)O)C(=O)N[C@H](C(=O)N[C@@H](CC(C)C)C(N)=O)[C@@H](C)CC)[C@@H](C)CC)[C@@H](C)CC	broth microdilution	ATCC 25922, Mueller-Hinton broth	16 h, 37 °C		100 µM
CC[C@H](C)[C@H](NC(=O)[C@H](CC(C)C)NC(=O)[C@H](CCCNC(=N)N)NC(=O)[C@@H](N)CCCNC(=N)N)C(=O)N[C@@H](CCCNC(=N)N)C(=O)N[C@@H](CCCCN)C(=O)N[C@@H](CC(C)C)C(=O)N[C@@H](CCCCN)C(=O)NCC(=O)N1CCC[C@H]1C(=O)N[C@@H](CCCCN)C(=O)N[C@H](C(=O)N[C@@H](Cc1ccc(O)cc1)C(=O)N[C@@H](CC(C)C)C(=O)N[C@@H](Cc1ccc(O)cc1)C(=O)N[C@@H](Cc1ccccc1)C(=O)N[C@@H](CCCCN)C(=O)N[C@@H](CC(C)C)C(=O)N[C@@H](CCC(N)=O)C(=O)N[C@@H](CC(C)C)C(=O)N[C@@H](CC(C)C)C(=O)N[C@@H](CCCCN)C(=O)N[C@@H](CCCCN)C(N)=O)[C@@H](C)CC	broth microdilution	KCTC 1682, Mueller-Hinton broth	24 h, 37 °C		16 µM
CC(C)(O/N=C(\C(=O)N[C@@H]1C(=O)N2C(C(=O)[O-])=C(C[n+]3ccccc3)CS[C@H]12)c1csc(N)n1)C(=O)O		DH5a clone with KPC-100			32 µg/mL
CC1=C(C(=O)O)N2C(=O)[C@@H](NC(=O)[C@H](N)c3ccccc3)[C@H]2SC1		BL21(DE3) wild type			6.25 µg/mL
CC(C)C[C@H](NC(=O)[C@@H](NC(=O)[C@H](CCCCN)NC(=O)[C@H](CCCCN)NC(=O)[C@@H](N)CC(C)C)C(C)C)C(=O)N[C@@H](CCCCN)C(=O)N[C@@H](C)C(=O)N[C@@H](C)C(=O)N[C@@H](C)C(=O)N[C@@H](CCCCN)C(=O)O		TG1			> 25 µM
CC[C@H](C)[C@H](NC(=O)CN)C(=O)NCC(=O)N[C@@H](CCCCN)C(=O)N[C@@H](Cc1ccccc1)C(=O)N[C@@H](CC(C)C)C(=O)N[C@@H](Cc1c[nH]cn1)C(=O)N[C@@H](CO)C(=O)N[C@@H](C)C(=O)N[C@@H](CCCCN)C(=O)N[C@@H](CCCCN)C(=O)N[C@@H](Cc1ccccc1)C(=O)NCC(=O)N[C@@H](CCCCN)C(=O)N[C@@H](C)C(=O)N[C@@H](Cc1ccccc1)C(=O)N[C@H](C(=O)NCC(=O)N[C@@H](CCC(=O)O)C(=O)N[C@H](C(=O)N[C@@H](CCSC)C(=O)N[C@@H](CC(N)=O)C(=O)N[C@@H](CO)C(N)=O)[C@@H](C)CC)C(C)C	broth dilution	K12 BW25113	18 h, 37 °C		3.6 µM
CC1(C)CC[C@]2(C(=O)O)CC[C@]3(C)C(=CC[C@@H]4[C@@]5(C)CC[C@H](O)C(C)(C)[C@@H]5CC[C@]43C)[C@@H]2C1		NDM-5			512 µg/mL
CC(C)(C)OCC1NC(=O)C(C(=O)NC(C(=O)NC2C(=O)N3C2SC(C)(C)C3C(=O)O)c2ccccc2)=C1O (centres unmarked)	broth microdilution	isolate IU, CTX-M-14, TEM-1	together with: clavulanic acid 6 µg/mL		> 200 µg/mL
CNC(C)[C@@H]1CC[C@@H](N)[C@@H](O[C@H]2[C@H](O)[C@@H](O[C@H]3OC[C@](C)(O)[C@H](NC)[C@H]3O)[C@H](N)C[C@@H]2N)O1 (some centres unmarked)	broth microdilution		18 h		4 µg/mL
CCCCCCC/C=C/C(=O)N1C(=O)/C(=C(/C)O)C(=O)C1Cc1ccc(O)cc1 (centres unmarked)		K12 ΔtolC			50 µg/mL
CC[C@H](C)[C@H](NC(=O)CNC(=O)[C@H](CC(=O)O)NC(=O)[C@H](CCCNC(=N)N)NC(=O)[C@@H](NC(=O)[C@H](CC(N)=O)NC(=O)[C@H](CCCNC(=N)N)NC(=O)CNC(=O)[C@@H](NC(=O)[C@H](CCC(=O)O)NC(=O)[C@H](CCC(=O)O)NC(=O)[C@@H](NC(=O)[C@H](CCCCN)NC(=O)[C@H](CCCCN)NC(=O)[C@H](Cc1ccccc1)NC(=O)[C@@H](NC(=O)[C@H](CCCCN)NC(=O)[C@H](Cc1c[nH]c2ccccc12)NC(=O)[C@@H](N)CCCNC(=N)N)[C@@H](C)CC)[C@@H](C)CC)C(C)C)C(C)C)C(=O)N[C@H](C(=O)N[C@@H](CCCCN)C(=O)N[C@@H](C)C(=O)NCC(=O)N1CCC[C@H]1C(=O)N[C@@H](C)C(=O)N[C@H](C(=O)N[C@@H](C)C(=O)N[C@H](C(=O)N[C@H](C(=O)NCC(=O)N[C@@H](CCC(N)=O)C(=O)N[C@@H](C)C(=O)N[C@@H](C)C(=O)N[C@H](C(=O)N[C@H](C(=O)N[C@H](C(=O)N[C@@H](CCCCN)C(N)=O)C(C)C)C(C)C)[C@@H](C)O)C(C)C)C(C)C)C(C)C)[C@@H](C)CC		K1 ATCC 700973, Mueller-Hinton broth	16 h, 37 °C	growth inhibition over 99%	2 µM
CC(C)C[C@H](NC(=O)[C@H](CCCCN)NC(=O)[C@H](CC(C)C)NC(=O)[C@H](CCCCN)NC(=O)[C@H](CC(C)C)NC(=O)[C@H](CCCCN)NC(=O)CNC(=O)[C@H]1CCCN1C(=O)[C@H](CCCCN)NC(=O)[C@H](CC(C)C)NC(=O)[C@H](CCCCN)NC(=O)[C@H](CC(C)C)NC(=O)[C@H](CCCCN)NC(=O)[C@@H](N)CC(C)C)C(N)=O	broth microdilution	ATCC 25922, Mueller-Hinton broth	18 h, 37 °C		4 µM
CC[C@H](C)[C@H](NC(=O)[C@H](CCCNC(=N)N)NC(=O)[C@H](CCCNC(=N)N)NC(=O)[C@H](CCCNC(=N)N)NC(=O)[C@H](CCCNC(=N)N)NC(=O)[C@H](CC(C)C)NC(=O)[C@H](CCCNC(=N)N)NC(=O)[C@H](CO)NC(=O)[C@@H](N)CO)C(=O)N[C@H](C(=O)N[C@@H](CC(C)C)C(=O)N[C@@H](CCCNC(=N)N)C(=O)N[C@@H](CCCNC(=N)N)C(=O)N[C@@H](CCCNC(=N)N)C(=O)N[C@@H](CCCNC(=N)N)C(=O)N[C@@H](Cc1ccccc1)C(=O)N[C@@H](CO)C(=O)N[C@@H](C)C(=O)N[C@@H](Cc1ccc(O)cc1)C(N)=O)C(C)C	checkerboard		24 h, 37 °C, alone, azithromycin plate		32 µM
CC[C@H](C)CCCCC(=O)N[C@@H](CCN)C(=O)N[C@H](C(=O)N[C@@H](CCN)C(=O)N[C@H]1CCNC(=O)[C@H]([C@@H](C)O)NC(=O)[C@H](CCN)NC(=O)[C@H](CCN)NC(=O)[C@H](CC(C)C)NC(=O)[C@@H](Cc2ccccc2)NC(=O)[C@H](CCN)NC1=O)[C@@H](C)O		K12	24 h		< 1 µM
CC[C@@H](C)[C@@H](N)C(=O)N[C@@H](C(=O)N[C@H](Cc1ccc(O)cc1)C(=O)N[C@@H](C(=O)N[C@H](CCCNC(=N)N)C(=O)N[C@H](CC(C)C)C(=O)N[C@H](CO)C(=O)N[C@H](CCCNC(=N)N)C(=O)N[C@@H](C(=O)N[C@H](CCCNC(=N)N)C(=O)N[C@H](Cc1c[nH]cn1)C(=O)N[C@H](CCCNC(=N)N)C(=O)N[C@H](C)C(=O)N[C@H](CCCNC(=N)N)C(=O)N[C@H](CCCNC(=N)N)C(N)=O)[C@H](C)CC)[C@H](C)CC)[C@H](C)CC		ATCC 25922, Mueller-Hinton broth	20 h, 37 °C		8 µg/mL
CC[C@H](C)[C@H](NC(=O)CNC(=O)[C@H](CC(=O)O)NC(=O)[C@H](CCCNC(=N)N)NC(=O)[C@@H](NC(=O)[C@H](CC(N)=O)NC(=O)[C@H](CCCNC(=N)N)NC(=O)CNC(=O)[C@@H](NC(=O)[C@H](CCCCN)NC(=O)[C@H](CCCNC(=N)N)NC(=O)[C@@H](NC(=O)[C@H](CCCCN)NC(=O)[C@H](CCCCN)NC(=O)[C@H](Cc1ccccc1)NC(=O)[C@@H](NC(=O)[C@H](CCCCN)NC(=O)[C@H](Cc1c[nH]c2ccccc12)NC(=O)[C@@H](N)CCCNC(=N)N)[C@@H](C)CC)[C@@H](C)CC)C(C)C)C(C)C)C(=O)N[C@H](C(=O)N[C@@H](CCCCN)C(=O)N[C@@H](C)C(=O)NCC(=O)N1CCC[C@H]1C(=O)N[C@@H](C)C(=O)N[C@H](C(=O)N[C@@H](C)C(=O)N[C@H](C(=O)N[C@H](C(=O)NCC(=O)N[C@@H](CCC(N)=O)C(=O)N[C@@H](C)C(=O)N[C@@H](C)C(=O)N[C@H](C(=O)N[C@H](C(=O)N[C@H](C(=O)N[C@@H](CCCCN)C(N)=O)C(C)C)C(C)C)[C@@H](C)O)C(C)C)C(C)C)C(C)C)[C@@H](C)CC		K1 ATCC 700973, Mueller-Hinton broth	16 h, 37 °C	growth inhibition over 99%	2 µM
CC1NC(=O)C(C(=O)NC(C(=O)NC2C(=O)N3C2SC(C)(C)C3C(=O)O)c2ccccc2)=C1O (centres unmarked)	broth microdilution	Keio mutant JW0146-2	18 h, ferric hydroxamate uptake gene		100 µg/mL
N=C(N)NCCC[C@H](NC(=O)[C@@H](N)CCCNC(=N)N)C(=O)N[C@@H](Cc1c[nH]c2ccccc12)C(=O)N[C@@H](Cc1c[nH]c2ccccc12)C(=O)N[C@@H](CCC(N)=O)C(=O)N[C@@H](Cc1ccccc1)C(=O)N[C@@H](CCC(N)=O)C(=O)N[C@@H](Cc1ccccc1)C(=O)N[C@@H](CCCCN)C(N)=O	broth microdilution, optical density				4.8 µM
C[C@@H](O)[C@H]1C(=O)N2C(C(=O)O)=C(S[C@@H]3CN[C@H](C(=O)N(C)C)C3)[C@H](C)[C@H]12		ATCC 25922, no carbapenemase			≤ 0.0625 µg/mL
N=C(N)c1ccc(OCCC(CCOc2ccc(C(=N)N)cc2)c2ccccc2)cc1 (centres unmarked)		mcr-1	20 h, compound alone		> 200 µg/mL

For quick reference, copied from above:
Compound	assay	system	setting	scale	MIC
CC[C@H](C)CCCCC(=O)N[C@@H](CCN)C(=O)N[C@H](C(=O)N[C@@H](CCN)C(=O)N[C@H]1CCNC(=O)[C@H]([C@@H](C)O)NC(=O)[C@H](CCN)NC(=O)[C@H](CCN)NC(=O)[C@H](CC(C)C)NC(=O)[C@@H](Cc2ccccc2)NC(=O)[C@H](CCN)NC1=O)[C@@H](C)O		K12	24 h		< 1 µM
CC[C@@H](C)[C@@H](N)C(=O)N[C@@H](C(=O)N[C@H](Cc1ccc(O)cc1)C(=O)N[C@@H](C(=O)N[C@H](CCCNC(=N)N)C(=O)N[C@H](CC(C)C)C(=O)N[C@H](CO)C(=O)N[C@H](CCCNC(=N)N)C(=O)N[C@@H](C(=O)N[C@H](CCCNC(=N)N)C(=O)N[C@H](Cc1c[nH]cn1)C(=O)N[C@H](CCCNC(=N)N)C(=O)N[C@H](C)C(=O)N[C@H](CCCNC(=N)N)C(=O)N[C@H](CCCNC(=N)N)C(N)=O)[C@H](C)CC)[C@H](C)CC)[C@H](C)CC		ATCC 25922, Mueller-Hinton broth	20 h, 37 °C		8 µg/mL
